# Assay results collected from several papers.
# Every numbered part comes from another study and shows a few of its results, in no order. Positions count from the first letter of the parent shown.
# Sequence of UniProt P63146 (whole entry, looked up): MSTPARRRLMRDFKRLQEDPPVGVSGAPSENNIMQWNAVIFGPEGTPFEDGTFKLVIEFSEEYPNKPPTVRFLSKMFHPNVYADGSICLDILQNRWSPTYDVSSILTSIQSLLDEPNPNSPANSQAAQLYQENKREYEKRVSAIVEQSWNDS
# Sequence of UniProt P62253 (whole entry, looked up): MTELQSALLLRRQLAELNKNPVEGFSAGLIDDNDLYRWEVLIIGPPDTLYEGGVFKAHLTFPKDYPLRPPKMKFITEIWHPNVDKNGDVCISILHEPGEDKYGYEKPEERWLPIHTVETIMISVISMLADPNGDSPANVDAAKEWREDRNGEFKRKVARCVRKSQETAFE
# Sequence of UniProt O00762 (whole entry, looked up): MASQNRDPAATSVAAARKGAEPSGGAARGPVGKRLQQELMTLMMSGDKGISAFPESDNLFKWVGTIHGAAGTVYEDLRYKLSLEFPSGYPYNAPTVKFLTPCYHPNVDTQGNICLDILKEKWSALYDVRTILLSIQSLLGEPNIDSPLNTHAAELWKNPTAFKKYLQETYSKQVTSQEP
# Sequence of UniProt P68036 (whole entry, looked up): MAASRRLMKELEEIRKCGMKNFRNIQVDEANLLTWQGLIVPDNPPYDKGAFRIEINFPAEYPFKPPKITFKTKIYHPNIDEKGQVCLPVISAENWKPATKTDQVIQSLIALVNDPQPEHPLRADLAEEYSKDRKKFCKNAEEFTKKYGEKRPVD
# Sequence of UniProt Q8N2K1 (whole entry, looked up): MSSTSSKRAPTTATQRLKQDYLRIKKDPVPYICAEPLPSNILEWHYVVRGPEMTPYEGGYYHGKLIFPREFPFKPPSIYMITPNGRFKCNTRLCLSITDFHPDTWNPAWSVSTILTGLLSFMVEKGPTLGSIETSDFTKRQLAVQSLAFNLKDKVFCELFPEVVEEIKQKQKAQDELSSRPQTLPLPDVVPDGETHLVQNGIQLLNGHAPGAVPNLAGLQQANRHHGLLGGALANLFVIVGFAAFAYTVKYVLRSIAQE
# Sequence of UniProt Q7Z7E8 (whole entry, looked up): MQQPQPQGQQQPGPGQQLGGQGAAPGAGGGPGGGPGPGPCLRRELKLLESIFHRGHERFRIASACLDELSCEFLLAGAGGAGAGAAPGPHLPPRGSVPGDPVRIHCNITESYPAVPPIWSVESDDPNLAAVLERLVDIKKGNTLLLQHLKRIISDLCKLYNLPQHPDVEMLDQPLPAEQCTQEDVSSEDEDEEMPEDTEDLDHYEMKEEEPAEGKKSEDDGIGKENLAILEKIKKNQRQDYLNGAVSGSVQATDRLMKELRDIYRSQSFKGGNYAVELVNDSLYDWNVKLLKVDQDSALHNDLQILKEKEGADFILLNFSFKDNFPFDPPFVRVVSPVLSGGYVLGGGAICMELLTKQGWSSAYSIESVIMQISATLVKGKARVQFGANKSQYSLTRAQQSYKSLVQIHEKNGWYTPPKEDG
# Sequence of UniProt Q9C0C9 (whole entry, looked up): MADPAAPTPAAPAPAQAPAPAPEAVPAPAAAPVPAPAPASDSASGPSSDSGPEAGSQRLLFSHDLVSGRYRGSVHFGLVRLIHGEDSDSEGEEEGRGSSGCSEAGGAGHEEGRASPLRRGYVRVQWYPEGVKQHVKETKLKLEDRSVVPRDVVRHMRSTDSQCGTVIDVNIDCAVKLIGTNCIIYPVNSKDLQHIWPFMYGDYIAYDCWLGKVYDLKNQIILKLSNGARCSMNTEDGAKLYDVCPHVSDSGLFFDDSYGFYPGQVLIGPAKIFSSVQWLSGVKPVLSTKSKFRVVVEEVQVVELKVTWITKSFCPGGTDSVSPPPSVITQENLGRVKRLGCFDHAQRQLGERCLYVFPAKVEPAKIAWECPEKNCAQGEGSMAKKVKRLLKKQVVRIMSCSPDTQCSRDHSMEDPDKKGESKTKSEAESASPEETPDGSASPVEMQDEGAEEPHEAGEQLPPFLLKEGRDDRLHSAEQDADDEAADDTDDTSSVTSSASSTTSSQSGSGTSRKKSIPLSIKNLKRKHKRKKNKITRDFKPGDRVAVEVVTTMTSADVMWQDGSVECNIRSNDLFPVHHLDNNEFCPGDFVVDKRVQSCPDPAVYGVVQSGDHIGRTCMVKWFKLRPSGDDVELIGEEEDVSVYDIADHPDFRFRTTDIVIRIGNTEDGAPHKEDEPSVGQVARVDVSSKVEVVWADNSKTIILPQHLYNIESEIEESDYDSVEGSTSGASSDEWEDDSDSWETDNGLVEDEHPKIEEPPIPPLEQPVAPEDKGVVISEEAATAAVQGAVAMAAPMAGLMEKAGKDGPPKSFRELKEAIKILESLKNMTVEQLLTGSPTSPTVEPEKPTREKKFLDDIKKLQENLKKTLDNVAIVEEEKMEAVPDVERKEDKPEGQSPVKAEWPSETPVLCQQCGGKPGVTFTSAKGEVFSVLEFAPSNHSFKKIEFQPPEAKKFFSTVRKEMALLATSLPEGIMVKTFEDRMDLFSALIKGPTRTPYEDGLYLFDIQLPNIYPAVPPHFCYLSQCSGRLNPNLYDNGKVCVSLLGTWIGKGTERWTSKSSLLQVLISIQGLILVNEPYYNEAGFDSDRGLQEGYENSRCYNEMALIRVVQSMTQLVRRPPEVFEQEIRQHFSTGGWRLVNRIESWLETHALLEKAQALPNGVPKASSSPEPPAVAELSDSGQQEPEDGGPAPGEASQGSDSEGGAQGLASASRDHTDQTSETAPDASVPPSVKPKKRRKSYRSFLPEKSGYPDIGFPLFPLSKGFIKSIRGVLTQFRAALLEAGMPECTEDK
# Sequence of UniProt Q16763 (whole entry, looked up): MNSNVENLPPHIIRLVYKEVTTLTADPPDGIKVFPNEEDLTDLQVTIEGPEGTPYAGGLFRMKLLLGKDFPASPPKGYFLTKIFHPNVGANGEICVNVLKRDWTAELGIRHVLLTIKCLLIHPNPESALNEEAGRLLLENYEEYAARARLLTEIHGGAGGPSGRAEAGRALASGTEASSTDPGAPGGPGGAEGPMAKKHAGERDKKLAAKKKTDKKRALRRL

# Block 1 — target: CCND2, cyclin fold, Cln2 fusion (human); technique: yeast growth competition, sequencing; sample: yeast; notes: strong parent motif; reference: not given; direction: higher = stronger binding
# Parent: E2F1 docking peptide (human); PPVKRRLDFETDH; partner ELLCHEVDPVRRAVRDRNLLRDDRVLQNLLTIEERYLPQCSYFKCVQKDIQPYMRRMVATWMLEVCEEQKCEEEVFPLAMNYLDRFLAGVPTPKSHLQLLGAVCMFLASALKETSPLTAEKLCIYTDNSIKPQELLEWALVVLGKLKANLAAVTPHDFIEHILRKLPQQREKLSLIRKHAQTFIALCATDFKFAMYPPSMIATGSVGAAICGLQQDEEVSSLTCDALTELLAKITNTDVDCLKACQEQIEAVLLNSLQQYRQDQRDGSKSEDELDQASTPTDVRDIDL
Substitution,normalised enrichment score
D12W,1.86
R6P,-0.204
F9N,0.165
T11Y,2.08
F9S,0.381
T11L,1.77
E10I,0.769
D12T,1.43
P2K,1.04
D12C,1.76
P2M,0.874
E10H,1.19
R5Q,0.0662
D8K,1.03
F9C,0.138
T11Q,2.07
R6W,0.275

# Block 2 — technique: RNA Bind-n-Seq; molecule type: RNA; sample: in vitro; tested at: 200 nM; notes: whole 134-nt RNA, ends assumed; added: 150 mM LiCl; reference: input library; direction: higher = stronger binding; all molecules: 7-deaza-guanosine replaces G
# Target: Fragile X messenger ribonucleoprotein 1, C-terminal low-complexity region (Fmr1, Mus musculus, UniProt P35922)
# Constant ends, left off below: GGGAGUUCUACAGUCCGACGAUC … UGGAAUUCUCGGGUGUCAAGG
Strand,log2 enrichment
CAAGUCCUGUGCUACACAUCGUAUGUACCGAAUCAAAUUUAAACCCAAAUUUAAAAAAGUAUUAUGUUACGCCGUUCGGAUCUGCACUUC,-1.16
UAACUUUAGAGGAGGAUCUGAUGGAUAUGCCAGUGGACGUGGAUUUGGGGAUGGCUAUAAUGGGUAUGGAGGAGGACCUGGAGGUGGCAA,-0.0158
UAACUUUAGAGGAGGAUCUGAUGGAUACGGCAGUGGACGUGGAUUUGGGGAUGGCUAUAAUGGGUAUGGAGGAGGACCUGGAGGUGGCAA,0.0561
UCAAGUCCUGUGCUACACAUCGUAUGUACCGAAUCGGUGGAAAGGUUUUUUUGGAAAGUAUUAUGUUACGCCGUUCGGAUCUGCACUUCC,-1.28
ACCAUGCAGGUGGGCAUCUUUGGGAAGUGGGGCAAGGGGGGGAUAGAAAGGGGGGUAACACUUUGGGAACAGGUGGUCCCAGGUCGUUUC,1
CAAGUCCUGUGCUACACAUCGUAUGUACCGAAUCGGAAAGGAAAGGGGAAAGGGGAAAGUAUUAUGUUACGCCGUUCGGAUCUGCACUUC,-0.0333
CUGUGCUACACAUCGUAUGUACCGAAUCGGGCCCCCCCGGGGCCCCCCCGGCCCCCCCGGGGAAAGUAUUAUGUUACGCCGUUCGGAUCU,-1.46
CAAGUCCUGUGCUACACAUCGUAUGUACCGAAUCGGGAGGGAAAAAAAGGGAGGGAAAGUAUUAUGUUACGCCGUUCGGAUCUGCACUUC,0.185
CACAGACAACACGCACCCACACAGACACUGAGGGAAGGGGUUGGGAUGGGGACAGGGUGCACAGCAGGGCGGGGUAGGACCCCAGCCCCU,0.301
UUCGAAGAGGUUGUGUACCAGGCCAUGGGUGAGUGCCCGGGCCACCGAGGCCACGUGCCUCCACGAGGGGCUGCCUAUGCCCCACCCUGG,-0.195
UAGCCAAGAGUCGAAGCUAAACCAGAAGUUCAAUCUCAGCCACCUCGUGUGCGUGAACAACGACCUAGAGAACGACCUGGUUUUCCUCCU,0.157

# Block 3 — technique: universal PBM; molecule type: double-stranded DNA, one strand shown; sample: in vitro; tested at: 600 nM; direction: higher = stronger binding
# Target: Sal-like protein 4, full length isoform A (SALL4, Homo sapiens, UniProt Q9UJQ4, residues 1-1053)
# Sequence of UniProt Q9UJQ4 (whole entry, looked up): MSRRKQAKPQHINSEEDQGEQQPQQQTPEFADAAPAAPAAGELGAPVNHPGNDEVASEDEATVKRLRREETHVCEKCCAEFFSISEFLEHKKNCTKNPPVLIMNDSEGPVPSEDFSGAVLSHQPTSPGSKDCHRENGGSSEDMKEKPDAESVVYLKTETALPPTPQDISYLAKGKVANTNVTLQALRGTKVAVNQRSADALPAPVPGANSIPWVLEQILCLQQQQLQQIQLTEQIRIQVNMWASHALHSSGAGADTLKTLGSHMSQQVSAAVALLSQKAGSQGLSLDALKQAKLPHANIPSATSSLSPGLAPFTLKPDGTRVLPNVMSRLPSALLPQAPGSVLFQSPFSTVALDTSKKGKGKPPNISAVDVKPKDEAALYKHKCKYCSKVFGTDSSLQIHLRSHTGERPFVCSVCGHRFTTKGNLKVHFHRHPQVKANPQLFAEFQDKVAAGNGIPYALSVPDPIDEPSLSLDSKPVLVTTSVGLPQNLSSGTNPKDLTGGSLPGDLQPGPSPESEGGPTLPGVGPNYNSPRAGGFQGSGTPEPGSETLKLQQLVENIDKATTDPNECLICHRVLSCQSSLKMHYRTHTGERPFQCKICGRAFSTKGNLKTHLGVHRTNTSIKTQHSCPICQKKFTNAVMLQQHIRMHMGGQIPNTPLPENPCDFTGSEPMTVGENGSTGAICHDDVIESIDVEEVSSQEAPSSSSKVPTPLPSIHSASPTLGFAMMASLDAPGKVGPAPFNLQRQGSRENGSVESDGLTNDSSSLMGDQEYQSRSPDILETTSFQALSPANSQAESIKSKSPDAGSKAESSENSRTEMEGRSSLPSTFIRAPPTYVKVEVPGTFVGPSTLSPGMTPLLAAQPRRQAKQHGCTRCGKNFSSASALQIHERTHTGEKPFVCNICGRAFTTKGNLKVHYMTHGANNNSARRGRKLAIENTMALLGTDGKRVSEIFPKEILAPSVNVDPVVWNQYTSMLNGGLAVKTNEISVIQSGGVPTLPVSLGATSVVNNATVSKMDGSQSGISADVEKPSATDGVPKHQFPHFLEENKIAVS
# Notes: 8-mer, flanks averaged, mean of replicates
Strand,E-score
CTGTAGGA,-0.0745
AAGAAGAC,0.000835
AGCGGCTA,-0.066
AACCTTCG,0.0286
GCCACAAA,-0.0246
AGTCATCG,0.0812
CCAATAGA,0.174
CGTCTTAC,0.0104
CCCAGTCC,-0.173
CTATTACA,0.251
ACTTATGG,0.164
GAACCGAC,-0.282
GGAAGTAC,-0.155
AGACAACA,0.0704
AATGCCTA,0.0854
CCGTGTCG,-0.33

# Block 4 — target: CEBPE, bZIP domain (human); technique: DHFR protein complementation; sample: yeast; reference: wild-type JUN-FOS pair; direction: higher = stronger binding
# Notes: single substitutions, most at no-binding floor
# Parent: JUN, bZIP domain (human); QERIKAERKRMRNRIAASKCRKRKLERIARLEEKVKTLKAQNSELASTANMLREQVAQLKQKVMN; partner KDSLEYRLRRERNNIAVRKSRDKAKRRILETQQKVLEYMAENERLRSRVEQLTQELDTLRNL
Substitution,binding fitness
S43I,-0.977 natural log
Q55D,-1.5 natural log
L45V,-1.49 natural log
A46G,-1.39 natural log
L31M,-1.21 natural log
R30Q,-0.964 natural log
Q41M,-1.14 natural log
K36C,-1.21 natural log
E44N,-1.29 natural log
K36G,-1.32 natural log
L38K,-1.6 natural log
Q55E,-1.13 natural log
E44S,-1.33 natural log
M51C,-1.31 natural log
E54Y,-1.22 natural log
E33V,-1.38 natural log
V56M,-1.38 natural log
T48Q,-0.918 natural log

# Block 5 — technique: protein-binding microarray; molecule type: double-stranded DNA, one strand shown; sample: in vitro; tested at: not given; direction: higher = stronger binding
# Target: Cyclic AMP-responsive element-binding protein 1 (CREB1, Homo sapiens, UniProt P16220, residues 1-327, full length assumed)
# Sequence of UniProt P16220 (whole entry, looked up): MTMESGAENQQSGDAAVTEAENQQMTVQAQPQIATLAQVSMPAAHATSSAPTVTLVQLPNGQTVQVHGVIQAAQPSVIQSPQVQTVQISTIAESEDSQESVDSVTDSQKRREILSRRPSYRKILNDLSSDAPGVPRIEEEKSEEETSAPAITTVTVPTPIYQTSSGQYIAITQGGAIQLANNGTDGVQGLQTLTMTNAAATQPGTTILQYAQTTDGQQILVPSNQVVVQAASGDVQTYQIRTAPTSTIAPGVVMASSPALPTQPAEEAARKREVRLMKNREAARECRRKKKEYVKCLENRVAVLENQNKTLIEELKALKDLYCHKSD
# Notes: k-mer, scored over probes, only values ≥0.25
Strand,E-score
ATAACAA,0.276
GTGATGA,0.298
ACGTAGA,0.331
GCATGAC,0.27
AATGATG,0.268
TATGTGA,0.267
AATTACG,0.334
CGTCACG,0.48
GTGAAAA,0.255
GTTATAA,0.265
ACGTAAC,0.431
GATGTGA,0.27
ATGTGAA,0.276
AACGTGT,0.253
TACATCA,0.258

# Block 6 — technique: RNA Bind-n-Seq; molecule type: RNA; sample: in vitro; tested at: not given; reference: input RNA pool; direction: higher = stronger binding
# Target: RING finger protein unkempt homolog, zinc fingers 1-6, GST-SBP tag (UNK, Homo sapiens, UniProt Q9C0B0, residues 30-357)
# Sequence of UniProt Q9C0B0 (30-357, looked up): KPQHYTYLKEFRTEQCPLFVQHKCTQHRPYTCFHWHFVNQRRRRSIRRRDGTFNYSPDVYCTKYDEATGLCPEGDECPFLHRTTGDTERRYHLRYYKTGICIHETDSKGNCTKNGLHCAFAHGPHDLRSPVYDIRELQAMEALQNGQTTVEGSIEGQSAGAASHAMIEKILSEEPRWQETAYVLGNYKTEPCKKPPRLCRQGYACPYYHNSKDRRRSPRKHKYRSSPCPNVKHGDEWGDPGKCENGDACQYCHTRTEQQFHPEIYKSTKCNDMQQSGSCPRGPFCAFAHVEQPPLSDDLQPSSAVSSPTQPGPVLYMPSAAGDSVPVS
# Notes: RNA with constant flanks, human and mouse sites, ends assumed
# Constant ends, left off below: GGGAGUUCUACAGUCCGACGAUC … CAACAGAGGAUUGAGCAUCA
Strand,bound/input enrichment [ratio]
ACUUGGUUCAACCUGCAGGCUCGAAAACGCAAGUACUUUAAAAAGCAUGAGAAACGAAUGUCGAAGGAUGAAGAAAGGGCAGUCAAAGACGAGCUGCUCAGUGAGAAGCCCGAAAUCAAG,0.131
CUGACUGCUAAAAUCCAGGAGCUCAAGGAAGAGUACGCUAGGAAGAGGGAAACCAUUUCCACUGCUAACAAAGCUAAUGAAGAGAGAUUGAAAGGACUGCAGAAAUCAGCGGAUCUGUAU,0.25
GAUGUCAGGACUAUCUUGCUCUCUAUCCAGAGCCUGCUAGGAGAACCCAACAUCGAUAGCCCUUUGAACACACACGCUGCGGAACUCUGGAAAAACCCCACAGCAUUUAAGAAAUACCUG,0.307
GCUGAUUGCAACCUGCUGCCCAAACUGCAUAUUGUCAAGGUGGUGGCCAAAAAAUAUCGCAACUUUGAUAUUCCAAAAGAAAUGACUGGCAUCUGGAGAUACCUAACUAAUGCAUACAGU,0.213
GCCUUUCUUGUUUUUAGUUUUAUAUUCUUUUUCUAUUAUUUAAAGAACCUCAGAGACUUUGUAAAUAUCGUUCGUAUCUUUCCAGUGAGUUAUUGGGCAGGAACGGUUGUCUUUGAGUAG,48.8
UCCCAUGACCAAAGGACUCUGAUCACUGGCAUGGCUUCCGGCAGCAUUGUAGCUUUUAAUAUAGAUUUUAAUCGGUGGCAUUAUGAGCAUCAGAACAGGUACUGAAGAGAAGCAGCAGAA,1.64
UUCUCUCGAGUUGAAGAAGACUAUCUCUGGAGGAUAAAACAACUAGGAUCACACUCUCCAGUAGCUCUUCUGAAUACACUGUUCUACUUUAACACUAAGUAUUUUGGCCUGAAAACAGUG,0.4
AAUUUAGAGGAGUAUCUAAGACUGGUUAUAUUCUGGGCACUAAAUGAAGGCGUUUCUAGGCAAUUUGAUUCGUUCAGAGAUGGAUUUGAAUCAGUCUUCCCACUCAGUCAUCUUCAGUAC,0.258
UUAAUAGGCUUAAUAAUUGUUGGCAAGGAUCCUUUUGCUUUCUUUGGCAUGCAAGCUCCUAGCAUCUGGCAGUGGGGCCAAGAAAAUAAGGUUUAUGCAUGUAUGAUGGUUUUCUUCUUG,0.369
UCCACACAGAAGCACAAUUUUGUCCUCUUCCAGACACUGUUGCCUCUACCUAGUUAGACAAAUAGGAUUUGACCUACAUUCUGUUGCCCCUAGGUUUGUGUUAGUGUCAGAAAUACUUAA,0.513
UUUACUUUUUUUGUGUGUUAAUGGUGUGUGCUCCCUCUCCCUCUCUUCCCUUUCCUGACCUUUAGUCUUUCACUUCCAAUUUUGUGGAAUGAUAUUUUAGGAAUAACGGACUUUUAAAGA,0.967

# Block 7 — technique: yeast two-hybrid; molecule type: peptide; sample: yeast; notes: mostly zero background; reference: not given; direction: higher = stronger interaction
# Sequence: ANYISAHTKDCPKCNICIEKNGGCNHMQCSKCKHDFCWMCLGDWKTHGSE (ARIH2 RING domain (UniProt O95376))
target,lacZ reporter activity
UBE2J2 UBC core domain (UniProt Q8N2K1),0
UBE2S UBC core domain (UniProt Q16763),0
UBE2O UBC core domain (UniProt Q9C0C9),0
UBE2L3 UBC core domain (UniProt P68036),0
UBE2B UBC core domain (UniProt P63146),0
UBE2C UBC core domain (UniProt O00762),0
UBE2Q1 UBC core domain (UniProt Q7Z7E8),0
UBE2G1 UBC core domain (UniProt P62253),0
UBE2I UBC core domain (UniProt P63279),0
